Assay results gathered from unrelated publications.
Each numbered part is a random draw from the data of one study; scales do not carry over between parts.
UniProt P62837, sequence (whole entry, looked up): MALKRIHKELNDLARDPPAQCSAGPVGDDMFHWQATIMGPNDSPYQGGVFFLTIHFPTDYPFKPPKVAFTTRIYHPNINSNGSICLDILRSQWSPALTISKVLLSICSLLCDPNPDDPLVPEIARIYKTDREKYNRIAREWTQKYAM

Study 1
Target: RING finger protein unkempt homolog, zinc fingers 1-6, GST-SBP tag (UNK, Homo sapiens, UniProt Q9C0B0, residues 30-357)
UniProt Q9C0B0, sequence (30-357, looked up): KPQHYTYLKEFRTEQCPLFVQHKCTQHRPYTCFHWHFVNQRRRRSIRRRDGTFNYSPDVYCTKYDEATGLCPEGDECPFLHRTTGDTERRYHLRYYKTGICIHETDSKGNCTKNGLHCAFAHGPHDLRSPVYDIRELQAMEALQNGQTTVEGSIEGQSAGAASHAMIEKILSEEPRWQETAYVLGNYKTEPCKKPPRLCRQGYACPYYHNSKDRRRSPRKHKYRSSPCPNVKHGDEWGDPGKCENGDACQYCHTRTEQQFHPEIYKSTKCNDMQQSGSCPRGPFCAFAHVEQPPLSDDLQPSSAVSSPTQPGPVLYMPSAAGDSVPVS
Method: RNA Bind-n-Seq
Form: RNA
Medium: in vitro
Tested at: not given
Setting: RNA with constant flanks, human-mouse chimeric sites, ends assumed
Relative to: input RNA pool
Direction: higher = stronger binding
Shared flanks, not repeated: GGGAGUUCUACAGUCCGACGAUC … CAACAGAGGAUUGAGCAUCA
| Sequence | bound/input enrichment |
| --- | --- |
| UUUGUAUUUAUGCUAAGCACACGUGCUGGUGGUCUGGGCAUCAAUCUUGCGACUGCUGAUGUAGUCAUUUUAUAUGACUCAGAUUGGAAUCCGCAAGUAGAUCUUCAGGCUAUGGACCGU | 0.104 ratio |
| CUCAGAGAUGUGGCAUAUCAGUAUGUGAAAAAGGGGGCUCGUAUAUUUGUGGAAGGGAAAGUGGACUAUGGUGAAUACAUGGAUAAAAAUAAUGUGAGGCGGCAAGCAACAACAAUCAUA | 0.398 ratio |
| UCAACAGACAACAUCAAAUACCAGCCUAAAGGGGGGCAGGUACAAAUUGUUACCAAGAAAAUAGACCUAAGCCAUGUGACAUCCAAAUGUGGCUCUCUAAAGAACAUCCGUCACAGGCCA | 0.693 ratio |
| AUAUUUCAUAUUGCAAAGAUGUUUACAAGUAUUUUAAUUUAAGUUCAGUGAACUUUUUUGUAGCUGGGUUAAAUCUUUUUAUUUUAGUAUGGCCUUAAUGGCAAAGAACACUGUAUUUUU | 3.49 ratio |
| UUCAAAGAAAAGGGCAGCUGUGUCAUUUCAUAAGUAACUCUGGGGGAGGGAAAUUCUAACUAGUUUGUUAAUUUUCCCCCAAAUGAAACCAACAUGCGUGUUGAAGAACUGAGAAAAAAU | 0.282 ratio |
| AACAGAUUGUCUUUAAGGUCAACGUAGGAGAAUGCUGGGGUGAUCAUUGUUGCCCAUGUGCCUUCUGACUGAGCUUUAAUGCUGUUCAUCCUUGAUGCUUUCCUUCACUCCAGAAUUGUU | 0.11 ratio |
| CACAGAGCAGCACCUACCCCCUCCUCCUUUCCACACCUGCAAACUCUUUUACUUGGGCUGCAUAGUUAGUGUAAUUACAUCUCAGCUUUGAGGGCUCCUGUGGCAAAUUCCCGGAUUAAA | 3.05 ratio |
| CAGGGCAUCAUCUCUCGUGCUGUUAGACACCUUUUUAAGAGUAUUGAUGAGAAAAAGACCUCAGCGAUUAAAAACGGGCUUCCUGCUCCUGAAUUCAAAGUGAAUGCCCAGUUCCUAGAG | 0.243 ratio |

Further values, each from its own experiment
SMN1 full length: SMN1, full length (human, UniProt Q16637, residues 1-294)
UniProt Q16637, sequence (whole entry, looked up): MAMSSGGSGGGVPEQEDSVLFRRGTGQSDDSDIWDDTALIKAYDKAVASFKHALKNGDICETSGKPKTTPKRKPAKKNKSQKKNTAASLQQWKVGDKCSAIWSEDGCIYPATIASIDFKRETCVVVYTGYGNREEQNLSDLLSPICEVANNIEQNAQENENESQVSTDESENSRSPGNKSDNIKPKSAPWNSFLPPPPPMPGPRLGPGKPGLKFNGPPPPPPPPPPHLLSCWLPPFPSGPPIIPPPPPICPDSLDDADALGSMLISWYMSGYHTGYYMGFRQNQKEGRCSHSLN
B1: UHRF2 RING domain (UniProt Q96PU4); chain CGGDPEKKCHSCSCRVCGGKHEPNMQLLCDECNVAYHIYCLNPPLDKVPEEEYWYCPSCKTDSSEVVKAGER
| Molecule | tested on | test | test system | setting | scale | measurement | result |
| --- | --- | --- | --- | --- | --- | --- | --- |
| ITGB1 (Homo sapiens, UniProt P05556) | ITGA6 (Homo sapiens, UniProt P23229) | cross-linking MS | cell fractions | with: DSSO | – | cross-linked residues | K202 to K144 |
| GGGCUCACCACGCACGUGCUUUGCUUGACCGGGAAUCGGGCCUCACCACGGCAAGCU | SMN1 full length | nitrocellulose filter binding | RNA, in vitro | 100 nM, whole RNA, constant flanks, single concentration, ends assumed | relative to: round 9 selected pool, higher = stronger binding | relative RNA binding | 73 % of pool |
| RSL1D1 (Homo sapiens, UniProt O76021) | SPTAN1 (Homo sapiens, UniProt Q13813) | cross-linking MS | cell fractions | with: DSSO | – | cross-linked residues | K235 to S1615 |
| GGGCUCACCACGCACGUGCGGCCAAAGAGGGUUGCGUUCCCCUCACCACGGCAAGCU | SMN1 full length | nitrocellulose filter binding | RNA, in vitro | 100 nM, whole RNA, constant flanks, single concentration, ends assumed | relative to: round 9 selected pool, higher = stronger binding | relative RNA binding | 27 % of pool |
| SRSF2 (Homo sapiens, UniProt Q01130) | SRSF7 (Homo sapiens, UniProt Q16629) | cross-linking MS | cell fractions | with: DSSO | – | cross-linked residues | K52 to K24 |
| EELRSLYNTV | HLA class I histocompatibility antigen, A alpha chain, allele A*26:03 (Homo sapiens, UniProt P04439) | peptide-MHC binding | peptide | concentration not given | – | binding | inactive |
| TCP1 (Homo sapiens, UniProt P17987) | CCT4 (Homo sapiens, UniProt P50991) | cross-linking MS | cell fractions | with: DMTMM | – | cross-linked residues | E68 to P2 |
| B1 (UHRF2 RING domain) | UBE2D2 UBC core domain (UniProt P62837) | yeast two-hybrid | yeast | mostly zero background | relative to: not given, higher = stronger interaction | lacZ reporter activity | 0 |

A few entries again (study 1):
| Sequence | bound/input enrichment |
| --- | --- |
| AACAGAUUGUCUUUAAGGUCAACGUAGGAGAAUGCUGGGGUGAUCAUUGUUGCCCAUGUGCCUUCUGACUGAGCUUUAAUGCUGUUCAUCCUUGAUGCUUUCCUUCACUCCAGAAUUGUU | 0.11 ratio |
| UCAACAGACAACAUCAAAUACCAGCCUAAAGGGGGGCAGGUACAAAUUGUUACCAAGAAAAUAGACCUAAGCCAUGUGACAUCCAAAUGUGGCUCUCUAAAGAACAUCCGUCACAGGCCA | 0.693 ratio |
